{"data": "Measurements of several laboratories", "note": "“And” joins repeats or separate records; there may be more than shown. ± marks the error that the study gave."}
{"Compound": "O=C(NCC1CCOC2(CCN(C(=O)C3(c4ccccc4)CCCC3)CC2)C1)Nc1ccccc1 (stereo not drawn)", "tested on": "Venezuelan equine encephalitis virus", "assay": "viral replication", "measurement": "EC50", "result": "> 39.8 µM"}
{"Compound": "CC[C@H](C)[C@H](NC(=O)[C@H](CC(C)C)NC(=O)[C@H](Cc1c[nH]c2ccccc12)NC(=O)[C@H](CCC(N)=O)NC(=O)[C@@H](NC(=O)[C@H](Cc1ccccc1)NC(=O)[C@H](C)NC(=O)[C@H](CCCCNC(=O)COCCOCCNC(=O)COCCOCCNC(=O)CC[C@H](NC(=O)CCCCCCCCCCCCCCCCCCC(=O)O)C(=O)O)NC(=O)[C@H](CCC(N)=O)NC(=O)[C@H](C)NC(=O)[C@@H](NC(=O)[C@H](CCCCN)NC(=O)[C@H](CC(=O)O)NC(=O)[C@H](CC(C)C)NC(=O)C(C)(C)NC(=O)[C@@H](NC(=O)[C@H](CO)NC(=O)[C@H](Cc1ccc(O)cc1)NC(=O)[C@H](CC(=O)O)NC(=O)[C@H](CO)NC(=O)[C@@H](NC(=O)[C@H](Cc1ccccc1)NC(=O)[C@@H](NC(=O)CNC(=O)[C@H](CCC(=O)O)NC(=O)C(C)(C)NC(=O)[C@@H](N)Cc1ccc(O)cc1)[C@@H](C)O)[C@@H](C)O)[C@@H](C)CC)[C@@H](C)CC)C(C)C)C(=O)N[C@@H](C)C(=O)NCC(=O)NCC(=O)N1CCC[C@H]1C(=O)N[C@@H](CO)C(=O)N[C@@H](CO)C(=O)NCC(=O)N[C@@H](C)C(=O)N1CCC[C@H]1C(=O)N1CCC[C@H]1C(=O)N1CCC[C@H]1C(=O)N[C@@H](CO)C(N)=O", "assay": "measured: Cough", "test system": "healthy subjects", "setting": "5/5/8/10 mg titrated, multiple ascending dose", "measurement": "subjects with adverse events", "result": "0%"}
{"Compound": "C=CC(=O)N1CCCC(C(=O)O)(C(F)(F)F)C1 (stereo not drawn)", "tested on": "Venezuelan equine encephalitis virus", "assay": "viral replication", "test system": "MRC5", "measurement": "IC50", "result": "4.7 ± 1.6 µM"}
{"Compound": "Nc1ncnc2c([C@@H]3N[C@H](CO)[C@@H](O)[C@H]3O)c[nH]c12", "tested on": "Venezuelan equine encephalitis virus", "assay": "viral replication", "test system": "HeLa, SH3", "setting": "3.1 µM", "measurement": "inhibition", "result": "0.2%"}
{"Compound": "Cn1cnc(Cn2c(=O)[nH]/c(=N\\c3cc4cn(C)nc4cc3Cl)n(Cc3cc(F)c(F)cc3F)c2=O)n1", "test system": "human, all renal function groups", "setting": "oral, 375 mg, hypertriglyceridaemia TEAE, Moderate severity", "measurement": "patients with adverse event", "result": "3.1%"}
{"Compound": "Clc1ccc2nc(N3CCC(NCCc4cccnc4)CC3)sc2c1", "tested on": "SARS-CoV-2", "assay": "cytopathic effect", "test system": "USA_WA1/2020", "setting": "round 2, 5-point", "measurement": "maximum response", "result": "89.6%"}
{"Compound": "COc1ccc(-c2ccnc3[nH]cc(C#Cc4cccnc4)c23)cc1F", "tested on": "Venezuelan equine encephalitis virus", "assay": "viral replication", "test system": "U-87 MG, TC-83", "measurement": "EC50", "result": "2.04 ± 0.58 µM"}
{"Compound": "O=C(N1CCC2(CC1)C[C@@H](CN1CCCCS1(=O)=O)CCO2)C1(c2ccccc2)CCCC1", "tested on": "Venezuelan equine encephalitis virus", "setting": "concentration not given, cell-based", "measurement": "antiviral activity", "result": "inactive"}
{"Compound": "CN(C)S(=O)(=O)NCC1CCOC2(CCN(C(=O)C3(c4ccccc4F)CCCC3)CC2)C1 (stereo not drawn)", "tested on": "Venezuelan equine encephalitis virus", "assay": "viral replication", "measurement": "EC50", "result": "7.94 µM"}
{"Compound": "Cn1cc(-c2ncc(C(=O)NCC=CS(C)(=O)=O)s2)cn1", "tested on": "Venezuelan equine encephalitis virus", "assay": "viral replication", "test system": "MRC5", "measurement": "IC50", "result": "> 10 µM"}
{"Compound": "CN(C)S(=O)(=O)NCC1CCOC2(CCN(C(=O)C3(c4ccncc4)CCCC3)CC2)C1 (stereo not drawn)", "tested on": "Venezuelan equine encephalitis virus", "assay": "viral replication", "measurement": "EC50", "result": "> 39.8 µM"}
{"Compound": "CNC(=O)[C@@H](NC(=O)[C@H](CC(C)C)[C@H](O)C(=O)NO)C(C)(C)C", "tested on": "Daboia russelii venom proteases (SVMP)", "assay": "protease activity, inhibitor", "test system": "MH population", "setting": "0.01 µM, together with: azocasein substrate", "how to read": "baseline: venom alone", "measurement": "remaining activity", "result": "96.6% and 90.1% and 92%"}
{"Compound": "O=C(N1CCC2(CC1)CC(CNCC(F)(F)F)CCO2)C1(c2ccccc2)CCCC1 (stereo not drawn)", "tested on": "Venezuelan equine encephalitis virus", "assay": "viral replication", "setting": "40 µM", "measurement": "inhibition", "result": "60%"}
{"Compound": "CS(=O)(=O)c1cc(C#N)cc(NC(=O)CCl)c1", "tested on": "Venezuelan equine encephalitis virus", "assay": "viral replication", "test system": "MRC5", "measurement": "IC50", "result": "0.11 ± 0.02 µM"}
{"Compound": "CCc1ccccc1N1CC(c2nc3ccccc3n2CCCCOc2ccccc2OC)CC1=O (stereo not drawn)", "tested on": "SARS-CoV-2", "assay": "cytopathic effect, cell-based CPE", "test system": "USA_WA1/2020", "setting": "round 1, 5-point dilution", "measurement": "AC50", "result": "10 µM"}
{"Compound": "COc1ccc(-c2ncnc3[nH]nc(C#Cc4cccnc4)c23)cc1OC", "tested on": "Venezuelan equine encephalitis virus", "assay": "viral replication", "test system": "U-87 MG, TC-83", "measurement": "EC50", "result": "4.22 ± 1.68 µM"}
{"Compound": "C=CC(=O)N1C[C@@H]2CC[C@@H]2[C@H]1C(=O)O", "tested on": "Venezuelan equine encephalitis virus", "assay": "viral replication", "test system": "MRC5", "measurement": "IC50", "result": "> 10 µM"}
{"Compound": "CS(=O)(=O)NCC1CCOC2(CCN(C(=O)C3(c4ccccc4)CCOCC3)CC2)C1 (stereo not drawn)", "tested on": "Venezuelan equine encephalitis virus", "assay": "viral replication", "setting": "40 µM", "measurement": "inhibition", "result": "20%"}
{"Compound": "COc1cc2c(cc1C(=O)Nc1ccc(C(C)(C)C)cc1)CCCCC2", "tested on": "Venezuelan equine encephalitis virus", "assay": "viral replication", "test system": "NHDF", "measurement": "EC90", "result": "> 40 µM"}
{"Compound": "O=C(CCl)NC(=O)NCCc1cccs1", "tested on": "Venezuelan equine encephalitis virus", "assay": "viral replication", "test system": "MRC5", "measurement": "IC50", "result": "2.1 ± 0.5 µM"}
{"Compound": "Fc1ccc(-c2ccnc3[nH]cc(C#Cc4cccnc4)c23)cc1", "tested on": "Venezuelan equine encephalitis virus", "assay": "viral replication", "test system": "U-87 MG, TC-83", "measurement": "EC50", "result": "> 10 µM"}
{"note": "Repeated from above:"}
{"Compound": "O=C(N1CCC2(CC1)C[C@@H](CN1CCCCS1(=O)=O)CCO2)C1(c2ccccc2)CCCC1", "tested on": "Venezuelan equine encephalitis virus", "setting": "concentration not given, cell-based", "measurement": "antiviral activity", "result": "inactive"}
{"Compound": "CN(C)S(=O)(=O)NCC1CCOC2(CCN(C(=O)C3(c4ccccc4F)CCCC3)CC2)C1 (stereo not drawn)", "tested on": "Venezuelan equine encephalitis virus", "assay": "viral replication", "measurement": "EC50", "result": "7.94 µM"}
{"Compound": "Cn1cc(-c2ncc(C(=O)NCC=CS(C)(=O)=O)s2)cn1", "tested on": "Venezuelan equine encephalitis virus", "assay": "viral replication", "test system": "MRC5", "measurement": "IC50", "result": "> 10 µM"}
